Measured values of several laboratories.
A part holds a random share of what one study measured. ± marks the error that the study gave.
Sequence of UniProt Q9BQI3 (whole entry, looked up): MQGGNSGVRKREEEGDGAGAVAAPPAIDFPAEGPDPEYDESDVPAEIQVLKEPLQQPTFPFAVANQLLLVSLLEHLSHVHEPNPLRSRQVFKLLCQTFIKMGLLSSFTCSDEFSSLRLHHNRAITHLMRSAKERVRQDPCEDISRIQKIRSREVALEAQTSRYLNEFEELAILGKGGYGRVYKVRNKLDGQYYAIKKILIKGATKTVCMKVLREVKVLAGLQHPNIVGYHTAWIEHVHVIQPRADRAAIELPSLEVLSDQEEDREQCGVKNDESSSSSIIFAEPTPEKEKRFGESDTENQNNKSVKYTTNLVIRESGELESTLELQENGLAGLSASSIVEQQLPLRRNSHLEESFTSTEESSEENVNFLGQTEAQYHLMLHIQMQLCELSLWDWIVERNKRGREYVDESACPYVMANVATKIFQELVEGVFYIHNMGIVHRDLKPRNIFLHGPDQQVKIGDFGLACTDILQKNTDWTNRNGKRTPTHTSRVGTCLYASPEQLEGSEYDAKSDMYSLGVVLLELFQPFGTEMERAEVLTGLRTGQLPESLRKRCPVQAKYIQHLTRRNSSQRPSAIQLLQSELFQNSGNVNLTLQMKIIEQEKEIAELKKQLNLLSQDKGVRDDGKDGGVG
Sequence of UniProt Q16566 (whole entry, looked up): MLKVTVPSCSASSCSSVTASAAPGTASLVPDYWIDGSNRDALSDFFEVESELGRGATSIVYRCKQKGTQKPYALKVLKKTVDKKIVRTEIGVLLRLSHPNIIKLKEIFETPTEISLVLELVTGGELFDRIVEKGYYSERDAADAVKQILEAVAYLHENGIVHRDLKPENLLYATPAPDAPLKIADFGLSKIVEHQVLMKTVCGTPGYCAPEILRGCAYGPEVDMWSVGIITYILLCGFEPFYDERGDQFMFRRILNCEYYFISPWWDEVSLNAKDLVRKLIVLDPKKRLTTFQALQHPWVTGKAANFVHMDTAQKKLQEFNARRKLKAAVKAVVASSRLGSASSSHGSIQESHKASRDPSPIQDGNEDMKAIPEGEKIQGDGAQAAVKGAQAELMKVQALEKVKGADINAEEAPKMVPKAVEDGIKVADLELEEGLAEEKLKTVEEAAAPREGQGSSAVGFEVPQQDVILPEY
Sequence of UniProt Q15759 (whole entry, looked up): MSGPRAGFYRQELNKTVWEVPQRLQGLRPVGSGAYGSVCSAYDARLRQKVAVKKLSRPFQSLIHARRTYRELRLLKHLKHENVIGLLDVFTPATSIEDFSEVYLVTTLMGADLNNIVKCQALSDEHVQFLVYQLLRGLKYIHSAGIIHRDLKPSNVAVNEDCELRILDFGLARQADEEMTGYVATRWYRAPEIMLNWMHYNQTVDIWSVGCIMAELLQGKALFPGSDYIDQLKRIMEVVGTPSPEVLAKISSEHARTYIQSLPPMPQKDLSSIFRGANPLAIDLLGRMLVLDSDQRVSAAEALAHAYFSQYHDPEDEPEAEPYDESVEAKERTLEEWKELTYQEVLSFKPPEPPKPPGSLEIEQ
Sequence of UniProt Q9P2K8 (whole entry, unmodified, looked up): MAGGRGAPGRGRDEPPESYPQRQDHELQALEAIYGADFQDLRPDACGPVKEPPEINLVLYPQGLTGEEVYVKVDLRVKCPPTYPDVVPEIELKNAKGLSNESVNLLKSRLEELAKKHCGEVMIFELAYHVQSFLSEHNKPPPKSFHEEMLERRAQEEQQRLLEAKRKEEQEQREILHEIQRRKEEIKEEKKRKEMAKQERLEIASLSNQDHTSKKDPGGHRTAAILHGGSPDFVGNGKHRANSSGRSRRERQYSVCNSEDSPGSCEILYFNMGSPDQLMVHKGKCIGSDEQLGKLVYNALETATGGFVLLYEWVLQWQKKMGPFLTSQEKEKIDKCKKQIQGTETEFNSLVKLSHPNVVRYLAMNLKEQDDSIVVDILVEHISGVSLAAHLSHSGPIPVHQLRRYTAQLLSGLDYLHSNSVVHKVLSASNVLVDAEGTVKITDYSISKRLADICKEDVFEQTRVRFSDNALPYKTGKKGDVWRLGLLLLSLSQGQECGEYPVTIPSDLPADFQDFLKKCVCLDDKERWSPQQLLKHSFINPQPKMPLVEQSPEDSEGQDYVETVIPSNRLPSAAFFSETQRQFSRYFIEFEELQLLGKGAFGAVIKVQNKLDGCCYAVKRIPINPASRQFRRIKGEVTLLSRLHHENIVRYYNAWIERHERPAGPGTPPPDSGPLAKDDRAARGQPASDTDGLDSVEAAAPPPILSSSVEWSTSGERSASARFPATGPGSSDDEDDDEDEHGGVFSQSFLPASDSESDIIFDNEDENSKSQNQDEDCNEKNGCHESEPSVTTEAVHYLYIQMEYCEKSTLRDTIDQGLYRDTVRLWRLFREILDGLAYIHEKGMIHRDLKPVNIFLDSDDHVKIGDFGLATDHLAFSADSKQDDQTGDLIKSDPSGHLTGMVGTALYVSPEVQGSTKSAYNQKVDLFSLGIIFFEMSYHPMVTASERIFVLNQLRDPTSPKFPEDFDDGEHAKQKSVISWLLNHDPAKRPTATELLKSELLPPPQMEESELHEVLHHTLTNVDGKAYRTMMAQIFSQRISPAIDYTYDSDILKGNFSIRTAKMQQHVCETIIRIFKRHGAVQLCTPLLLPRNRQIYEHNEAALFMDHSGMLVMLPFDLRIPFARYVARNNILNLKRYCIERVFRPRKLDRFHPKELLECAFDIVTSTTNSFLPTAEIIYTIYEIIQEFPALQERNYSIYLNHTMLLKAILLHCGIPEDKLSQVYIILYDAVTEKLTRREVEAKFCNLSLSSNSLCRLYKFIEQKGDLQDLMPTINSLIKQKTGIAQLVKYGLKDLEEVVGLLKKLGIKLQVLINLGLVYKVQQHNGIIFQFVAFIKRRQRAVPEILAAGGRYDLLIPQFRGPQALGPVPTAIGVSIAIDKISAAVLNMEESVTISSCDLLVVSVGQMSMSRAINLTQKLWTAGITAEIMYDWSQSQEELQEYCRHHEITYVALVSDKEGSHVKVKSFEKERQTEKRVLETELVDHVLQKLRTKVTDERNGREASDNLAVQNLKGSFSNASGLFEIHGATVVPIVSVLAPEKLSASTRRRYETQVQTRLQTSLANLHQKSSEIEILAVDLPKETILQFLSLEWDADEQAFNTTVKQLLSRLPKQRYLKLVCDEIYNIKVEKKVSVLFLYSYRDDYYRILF
Sequence of UniProt P37023 (whole entry, looked up): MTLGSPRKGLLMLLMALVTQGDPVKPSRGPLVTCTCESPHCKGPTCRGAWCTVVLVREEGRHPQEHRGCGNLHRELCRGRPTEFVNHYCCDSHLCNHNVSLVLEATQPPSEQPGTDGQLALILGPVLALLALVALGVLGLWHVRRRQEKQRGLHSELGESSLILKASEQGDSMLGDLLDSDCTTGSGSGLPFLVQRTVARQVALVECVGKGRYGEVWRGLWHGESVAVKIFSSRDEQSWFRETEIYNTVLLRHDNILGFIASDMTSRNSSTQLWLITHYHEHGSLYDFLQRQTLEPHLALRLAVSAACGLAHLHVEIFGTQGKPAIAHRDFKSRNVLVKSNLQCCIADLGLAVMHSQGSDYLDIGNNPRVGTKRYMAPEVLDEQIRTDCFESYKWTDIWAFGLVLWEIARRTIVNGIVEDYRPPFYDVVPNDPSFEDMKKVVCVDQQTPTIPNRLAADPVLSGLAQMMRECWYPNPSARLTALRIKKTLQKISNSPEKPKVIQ
Sequence of UniProt Q16832 (whole entry, looked up): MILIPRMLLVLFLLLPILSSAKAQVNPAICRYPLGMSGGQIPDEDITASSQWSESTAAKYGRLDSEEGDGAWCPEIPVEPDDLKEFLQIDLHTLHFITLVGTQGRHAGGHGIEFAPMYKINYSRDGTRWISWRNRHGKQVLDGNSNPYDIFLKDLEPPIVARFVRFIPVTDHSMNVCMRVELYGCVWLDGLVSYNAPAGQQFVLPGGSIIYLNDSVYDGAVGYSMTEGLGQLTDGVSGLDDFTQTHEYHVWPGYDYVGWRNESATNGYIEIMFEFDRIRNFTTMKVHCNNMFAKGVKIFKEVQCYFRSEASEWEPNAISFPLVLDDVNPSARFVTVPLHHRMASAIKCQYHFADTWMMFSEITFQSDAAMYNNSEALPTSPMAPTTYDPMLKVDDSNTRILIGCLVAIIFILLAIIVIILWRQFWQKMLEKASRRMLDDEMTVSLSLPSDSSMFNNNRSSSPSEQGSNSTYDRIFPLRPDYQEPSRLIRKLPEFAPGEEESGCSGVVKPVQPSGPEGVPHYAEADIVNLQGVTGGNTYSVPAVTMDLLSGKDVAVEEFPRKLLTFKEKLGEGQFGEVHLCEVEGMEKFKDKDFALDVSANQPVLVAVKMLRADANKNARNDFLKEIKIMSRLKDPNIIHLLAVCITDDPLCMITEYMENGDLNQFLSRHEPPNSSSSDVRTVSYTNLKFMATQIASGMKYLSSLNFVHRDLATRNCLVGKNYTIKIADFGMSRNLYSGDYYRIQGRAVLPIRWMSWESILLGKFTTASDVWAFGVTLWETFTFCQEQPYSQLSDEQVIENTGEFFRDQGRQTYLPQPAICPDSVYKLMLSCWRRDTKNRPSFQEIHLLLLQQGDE

Sample 1 — cell line: A-375; concentration: 100 µM; time: 36 h
With `NC(=O)c1cc[n+](CC2=C(C(=O)O)N3C(=O)[C@@H](NC(=O)[C@@H](c4ccccc4)S(=O)(=O)[O-])[C@H]3SC2)cc1` the viability was 95.5%.
The viability of `CCOC(=O)c1c(C)n(C)c2ccc(O)cc12` is reported as 64.5%.
With `CCn1nc(C(=O)O)c(=O)c2cc3c(cc21)OCO3` the viability was 122%.
For `N[C@@H](CSCCCO)C(=O)O`, the viability was 96.7%.
For `C[C@]12CC[C@@H]3c4ccc(OC(=O)c5ccccc5)cc4CC[C@H]3[C@@H]1CC[C@@H]2O`, the viability was -3.38%.
For `C=CC1=C(C(=O)O)N2C(=O)[C@@H](NC(=O)/C(=N\O)c3csc(N)n3)[C@H]2SC1`, the viability was 105%.
For `O=C1CCC(N2C(=O)c3ccccc3C2=O)C(=O)N1` (stereo not drawn), the viability was 115%.
`O=C1CN2Cc3c(ccc(Cl)c3Cl)N=C2N1` has a viability of 77.7%.

Sample 2 — effect on: enzyme activity; mode: inhibitor; concentration: 0.5 µM; relative to: control
Structure (SMILES): CC#CC(=O)Nc1cc2c(Nc3ccc(F)c(Cl)c3)ncnc2cn1
Calcium/calmodulin-dependent protein kinase type IV (CAMK4, Homo sapiens, UniProt Q16566) — remaining activity: 97.4%.
Mitogen-activated protein kinase 14 (MAPK14, Homo sapiens, UniProt Q16539) — remaining activity: 101%.
It gave 99.4% for remaining activity (Calcium/calmodulin-dependent protein kinase type 1B (PNCK, Homo sapiens, UniProt Q6P2M8)).
For Dual specificity mitogen-activated protein kinase kinase 1 (MAP2K1, Homo sapiens, UniProt Q02750): remaining activity read 95.3%.
For Misshapen-like kinase 1 (MINK1, Homo sapiens, UniProt Q8N4C8): remaining activity read 91.9%.
The remaining activity was 101% (MAP/microtubule affinity-regulating kinase 4 (MARK4, Homo sapiens, UniProt Q96L34)).
The remaining activity was 105% (Serine/threonine-protein kinase MARK2 (MARK2, Homo sapiens, UniProt Q7KZI7)).
The remaining activity was 96.2% (Rho-associated protein kinase 1 (ROCK1, Homo sapiens, UniProt Q13464)).
Ribosomal protein S6 kinase alpha-4 (RPS6KA4, Homo sapiens, UniProt O75676) — remaining activity: 100%.
It gave 108% for remaining activity (Discoidin domain-containing receptor 2 (DDR2, Homo sapiens, UniProt Q16832)).
For Serine/threonine-protein kinase MRCK beta (CDC42BPB, Homo sapiens, UniProt Q9Y5S2): remaining activity read 96.4%.
Dual specificity protein kinase CLK3 (CLK3, Homo sapiens, UniProt P49761) — remaining activity: 47.1%.
The remaining activity was 99% (Serine/threonine-protein kinase PAK 3 (PAK3, Homo sapiens, UniProt O75914)).
It gave 104% for remaining activity (G protein-coupled receptor kinase 4 (GRK4, Homo sapiens, UniProt P32298)).
cGMP-dependent protein kinase 2 (PRKG2, Homo sapiens, UniProt Q13237) — remaining activity: 105%.
Tyrosine-protein kinase TXK (TXK, Homo sapiens, UniProt P42681) — remaining activity: 1.66%.
Serine/threonine-protein kinase DCLK2 (DCLK2, Homo sapiens, UniProt Q8N568) — remaining activity: 102%.
Cyclin-dependent kinase 1, with cyclin A (CDK1, Homo sapiens, UniProt P06493) — remaining activity: 96.5%.
It gave 76.2% for remaining activity (Serine/threonine-protein kinase Nek3 (NEK3, Homo sapiens, UniProt P51956)).
For Hepatocyte growth factor receptor (MET, Homo sapiens, UniProt P08581): remaining activity read 96.3%.
The remaining activity was 96.2% (Mitogen-activated protein kinase 11 (MAPK11, Homo sapiens, UniProt Q15759)).
It gave 98.4% for remaining activity (Cyclin-dependent kinase 9, with cyclin K (CDK9, Homo sapiens, UniProt P50750)).
The remaining activity was 100% (Serine/threonine-protein kinase PLK3 (PLK3, Homo sapiens, UniProt Q9H4B4)).
It gave 90.4% for remaining activity (Dual specificity protein kinase CLK4 (CLK4, Homo sapiens, UniProt Q9HAZ1)).
Vascular endothelial growth factor receptor 2 (KDR, Homo sapiens, UniProt P35968) — remaining activity: 98.2%.

Sample 3 — effect on: kinase activity
Compound: COc1cc(C(=O)N2CCC(N3CCN(C)CC3)CC2)ccc1Nc1ncc2c(n1)N(C)c1ccccc1C(=O)N2C
MKK1; 1 µM — remaining activity: 94 ± 3%.
The remaining activity was 104% (ERK1; 10 µM).
For JAK2; 10 µM: remaining activity read 80 ± 8%.
It gave 83 ± 4% for remaining activity (FGF-R1; 1 µM).
PDK1; 1 µM — remaining activity: 68 ± 2%.
JNK3; 1 µM — remaining activity: 92 ± 9%.

Sample 4 — method: competition with immobilised ligand; concentration: 1 µM
Compound: NS(=O)(=O)c1cc(NC(=O)Cc2ccccc2)ccc1Oc1cccc(Cl)c1
For Activin receptor type-1-like (ACVRL1, Homo sapiens, UniProt P37023); binding: remaining binding read 99%.
It gave 100% for remaining binding (Homeodomain-interacting protein kinase 4 (HIPK4, Homo sapiens, UniProt Q8NE63); cell-free assay).
It gave 100% for remaining binding (Serine/threonine-protein kinase tousled-like 2 (TLK2, Homo sapiens, UniProt Q86UE8); cell-free assay).
The remaining binding was 100% (eIF-2-alpha kinase GCN2, C-terminal kinase domain (EIF2AK4, Homo sapiens, UniProt Q9P2K8, S808G); cell-free assay).
Serine/threonine-protein kinase 32B (STK32B, Homo sapiens, UniProt Q9NY57); cell-free assay — remaining binding: 100%.
The remaining binding was 83% (Eukaryotic translation initiation factor 2-alpha kinase 1 (EIF2AK1, Homo sapiens, UniProt Q9BQI3); cell-free assay).
For Serine/threonine-protein kinase PLK4 (PLK4, Homo sapiens, UniProt O00444); cell-free assay: remaining binding read 92%.
Phosphatidylinositol 3-kinase C2 domain-containing subunit gamma (PIK3C2G, Homo sapiens, UniProt O75747); cell-free assay — remaining binding: 72%.

Sample 5 — mode: agonist
Target: Beta-1 adrenergic receptor (ADRB1, Homo sapiens, UniProt P08588)
Sequence of UniProt P08588 (whole entry, looked up): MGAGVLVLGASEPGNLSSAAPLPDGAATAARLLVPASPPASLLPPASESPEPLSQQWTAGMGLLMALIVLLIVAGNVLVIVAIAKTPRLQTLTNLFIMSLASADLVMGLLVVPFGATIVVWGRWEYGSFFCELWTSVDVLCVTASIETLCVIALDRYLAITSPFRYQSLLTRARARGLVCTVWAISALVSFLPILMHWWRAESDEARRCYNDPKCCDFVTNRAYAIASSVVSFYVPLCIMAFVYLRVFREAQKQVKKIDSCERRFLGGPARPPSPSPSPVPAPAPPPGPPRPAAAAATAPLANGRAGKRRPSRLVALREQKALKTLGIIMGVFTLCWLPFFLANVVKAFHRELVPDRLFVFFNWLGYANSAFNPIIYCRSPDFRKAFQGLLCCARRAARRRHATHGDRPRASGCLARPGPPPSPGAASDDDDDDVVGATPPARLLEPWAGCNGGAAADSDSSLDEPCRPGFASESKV
The EC50 of `COc1ccccc1-c1ccc2ncc(Nc3cc(F)cc(N4CCOCC4)c3)n2n1` is reported as no less than 100 µM.
`O=C1COc2ccc(N3CCOCC3)nc2CN1Cc1ccc(F)cc1` gave an EC50 of no less than 100 µM.
With `Nc1nc(N)c2nc(-c3cccc(O)c3)cnc2n1` the EC50 was no less than 100 µM.
`CN(CCC(O)c1ccccc1)C(=O)c1coc(Cn2cnc3ccccc32)n1` (stereo not drawn) gave an EC50 of no less than 100 µM.
With `Cc1ccc(Nc2nc(N3CCOCC3)nc3nccnc23)c(C)c1` the EC50 was no less than 100 µM.
`Cc1nn(Cc2ccc(F)cc2)c2sc(C(=O)N(C)Cc3cnn(C)c3)cc12` gave an EC50 of 28.2 µM.
The EC50 of `Cn1c(=O)n(-c2ccc(N3CCN(C(=O)OC(C)(C)C)CC3)c(C(F)(F)F)c2)c2c3cc(-c4cncc5ccccc45)ccc3ncc21` is reported as no less than 100 µM.
